Experimental data pooled from the literature.
Values joined by “and” are separate records of one study, mostly repeats; a detail may differ. Numbers after ± are the reported error.
Organism: HIV-1

C=C(C)[C@@]12C[C@@H](COC(=O)c3ccccc3)[C@@]34OC5(O[C@@H]1[C@@H]3[C@@H]1O[C@]1(CO)[C@@H](O)[C@@]1(O)[C@H]4[C@H]([C@H](C)[C@@H]1OC(=O)c1ccccc1)[C@H](C)CCCCCC[C@H]5O)O2  IC50 (viral replication; MT4, NL4-3): 0.15 ± 0.04 nM
C=C(C)[C@@]12O[C@@]3(c4ccccc4)O[C@@H]1[C@@H]1[C@@H]4O[C@]4(CO)[C@@H](O)[C@]4(O)C(=O)C(C)=C[C@H]4[C@@]1(O3)[C@H](C)[C@H]2OC(=O)/C=C/C=C/c1ccccc1  EC50 (viral replication, luciferase reporter; MT-4, NL4-3 Nanoluc-sec): 0.84 ± 0.2 nM
O=C(c1ccc(-n2sc3ncccc3c2=O)cc1)N1CCOCC1  IC50 (viral replication): ~3000 nM
O=C(c1ccc(OS(=O)(=O)F)cc1O)c1ccc(OS(=O)(=O)F)cc1O  EC50 (viral replication, β-gal reporter; P4/R5 cells, NL4-3): 7300 nM
C[C@H](Cn1cnc2c(N)ncnc21)OCP(=O)(O)O  EC50 (viral cytopathic effect; MT-4, NL4.3): 3770 nM
Cc1cc(/C=C/C#N)cc(C)c1Nc1ccnc(Nc2ccc(C#N)cc2)n1  EC50 (viral replication; TZM-bl, A17 K103N/Y181C; 48 h): 1.86 ± 1.09 nM
Cc1cc(C#N)cc(C)c1Oc1nc(Nc2ccc(C#N)cc2)nc(N)c1Br  resistance fold (MTT; MT4, RT A98G/V106I/V179D/Y181C/G333E mutant; reference: mutant EC50 over IIIB EC50): 176
Cc1nnc(C(=O)NC(C)(C)c2nc(C(=O)NCc3ccc(F)cc3)c(O)c(=O)n2C)o1  EC50 (viral infection): 20 nM
CC(C)CN(C[C@@H](O)[C@H](Cc1cc(F)cc(F)c1)NC(=O)O[C@H]1C[C@@H]2C[C@H]3[C@H](OC[C@H]31)O2)S(=O)(=O)c1ccc2nc(NC3CC3)sc2c1  IC50 (viral replication): 0.029 ± 0.013 nM
Nc1ccn([C@@H]2CS[C@H](CO)O2)c(=O)n1  resistance fold (MTT; MT4, RT L100I/V179D/Y181C mutant; reference: mutant EC50 over IIIB EC50): 1.8
O=C(/C=C(\O)C(=O)N1CCN(c2ccc(-n3cccc3)cc2)CC1)c1cc(Cc2cc(F)cc(F)c2)cn(Cc2ccccc2F)c1=O  EC50 (viral replication; MAGI-R5): 50 ± 10 nM
O=c1c2ccccc2sn1-c1ccc(S(=O)(=O)N2CCCC2)cc1  inhibition (viral replication; 3 µM): > 50%
C=CC(=O)n1c(=O)n(CCOc2ccccc2Oc2cccc3cc(C#N)ccc23)c2ccccc21  EC50 (viral cytopathic effect; MT-2, IIIB): 0.5 ± 0.1 nM
Cc1ccnc2c1NC(=O)c1cccnc1N2C1CC1  resistance fold (MTT; MT4, RT L100I/V179D/Y181C mutant; reference: mutant EC50 over IIIB EC50): > 106
Cc1ccc(-n2sc3ccccc3c2=O)cc1  IC50 (viral replication; human macrophages, Ba-L): 4000 nM
Cn1c(Cn2ccc(C(F)(F)F)c(Oc3cc(Cl)cc(C#N)c3)c2=O)n[nH]c1=O  resistance fold (MTT; MT4, RT A98G/V106I/V179D/Y181C/G333E mutant; reference: mutant EC50 over IIIB EC50): 75
O=C(c1cc(-n2sc3ncccc3c2=O)ccc1Cl)N1CCOCC1  inhibition (viral replication; 3 µM): > 50%
C=C(C)[C@]12C[C@@H](C)[C@@]34O[C@](CCCCCCCCCCC)(O[C@@H]1[C@@H]3[C@@H]1O[C@]1(CO)[C@@H](O)[C@]1(O)C(=O)C(C)=C[C@H]14)O2  IC50 (viral replication; MT-4, NL4-3 NanoLuc-sec reporter): 0.82 ± 0.21 nM
COc1cc(-n2sc3ccccc3c2=O)ccc1F  IC50 (viral replication): 320 nM and 210 nM
CN(C)c1ccc(/N=N/c2ccc(Cl)cc2)cc1  EC50 (viral replication; MT4, IIIB): > 100000 nM
O=c1c2ccccc2sn1-c1ccc(F)cc1  IC50 (viral replication): 5430 nM
C=CC(=O)n1c(=O)n(CCOc2cc(Cl)ccc2Oc2cc(Cl)cc(C#N)c2)c2ccccc21  EC50 (viral cytopathic effect; MT-2, IIIB, wild type): ~400 nM

A few entries again:
C=C(C)[C@]12C[C@@H](C)[C@@]34O[C@](CCCCCCCCCCC)(O[C@@H]1[C@@H]3[C@@H]1O[C@]1(CO)[C@@H](O)[C@]1(O)C(=O)C(C)=C[C@H]14)O2  IC50 (viral replication; MT-4, NL4-3 NanoLuc-sec reporter): 0.82 ± 0.21 nM
O=C(c1cc(-n2sc3ncccc3c2=O)ccc1Cl)N1CCOCC1  inhibition (viral replication; 3 µM): > 50%
